Experimental data of several laboratories.
Compare with care: the assays were run in different laboratories. Values joined by “and” are separate records of one study, mostly repeats; a detail may differ. Numbers after ± are the reported error.
Chain of UniProt Q86Y07 (whole entry, looked up): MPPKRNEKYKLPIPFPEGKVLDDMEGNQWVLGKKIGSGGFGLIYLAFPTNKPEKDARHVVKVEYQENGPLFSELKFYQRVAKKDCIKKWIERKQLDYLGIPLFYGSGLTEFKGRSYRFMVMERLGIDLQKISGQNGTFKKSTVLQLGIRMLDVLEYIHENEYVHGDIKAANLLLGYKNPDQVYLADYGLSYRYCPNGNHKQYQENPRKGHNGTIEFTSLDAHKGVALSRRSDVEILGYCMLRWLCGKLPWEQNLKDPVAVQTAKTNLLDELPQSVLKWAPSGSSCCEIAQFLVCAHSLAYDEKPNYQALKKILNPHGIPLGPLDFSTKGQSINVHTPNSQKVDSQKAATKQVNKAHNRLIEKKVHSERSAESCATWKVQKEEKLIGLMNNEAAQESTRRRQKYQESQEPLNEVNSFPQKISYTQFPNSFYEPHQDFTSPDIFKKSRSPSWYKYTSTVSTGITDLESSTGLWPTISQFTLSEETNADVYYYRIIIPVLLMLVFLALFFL

CC1(C)C(=O)N(c2ccc(C#N)c(C(F)(F)F)c2)C(=S)N1c1ccc(C(N)=O)c(F)c1 — MRT (male human, plasma; oral, 40 mg, single dose, fasted): 16.7 days
CCCC[C@H]1C(=O)N(C)[C@@H](CCCC)C(=O)N[C@@H](CCCNC(=O)CN2CCN(CC(=O)O)CCN(CC(=O)O)CCN(CC(=O)O)CC2)C(=O)N[C@H](C(=O)NCC(N)=O)CSCC(=O)N[C@@H](Cc2ccc(O)cc2)C(=O)N(C)[C@@H](C)C(=O)N[C@@H](CC(N)=O)C(=O)N2CCC[C@H]2C(=O)N[C@@H](Cc2c[nH]cn2)C(=O)N[C@@H](CC(C)C)C(=O)N(C)CC(=O)N[C@@H](Cc2c[nH]c3ccccc23)C(=O)N[C@@H](CO)C(=O)N[C@@H](Cc2c[nH]c3ccccc23)C(=O)N1C [gallium-68 labelled] — tissue-to-tissue ratio (NOD/SCID mice, CHO-hPD-L1 xenograft, tumour over liver; iv, dose not given, 30 min; relative to: tumour over liver): 1.12 ± 0.14
C[C@H](NCc1ccc(-c2ccc(C(F)(F)F)cc2)cc1)C(N)=O — compound remaining (metabolic stability; rat, liver microsomes; 1 µM, 30 min, pH 7.4): 60%
COc1ccccc1-c1n[nH]c2nc(NC3CCN(C(=O)Cc4ccc(F)cc4F)CC3)ncc12 — relative abundance (bead binding, competition bead pull-down, refers to: LINJ.35.2780; Leishmania donovani extract; 10 µM; relative to: vehicle): 1.16
CS(C)(=O)=Nc1ccc(-c2ccc(-c3nc4cc(O[C@@H]5CO[C@H]6[C@@H]5OC[C@H]6O)[nH]c4cc3F)cc2)cc1 — inhibition (VRK2 (Homo sapiens, UniProt Q86Y07); enzyme activity, inhibitor; 10 µM): 5%
CC(C)=CCC/C(C)=C/CCn1cc(CC(C)(P(=O)(O)O)P(=O)(O)O)nn1 — concentration (mouse CD-1, bile; intravenous, 0.3 mg/kg, 8 h): 6040 ± 3070 ng/mL
CC[C@H](C)[C@H](NC(=O)[C@H](CO)NC(=O)[C@H](Cc1ccc(O)cc1)NC(=O)[C@H](Cc1ccc(O)cc1)NC(=O)[C@H](CC(N)=O)NC(=O)CNC(=O)[C@H](CO)NC(=O)[C@H](Cc1ccc(O)cc1)NC(=O)[C@H](CO)NC(=O)[C@H](CO)NC(=O)[C@H](CC(N)=O)NC(=O)COCCOCCNC(=O)CN1CCN(CC(=O)O)CCN(CC(=O)O)CCN(CC(=O)O)CC1)C(=O)N[C@@H](CC(C)C)C(N)=O [copper-64 labelled] — tumour uptake (dynamic PET; mouse, tamoxifen-induced PDAC, blood; intravenous, 0.1 µg/mouse, 9.5 min): 6.67 %ID/mL
Cc1nc2cccc(OCC(C)(C)C(=O)NC(C)C)c2c(N)c1C(=O)[O-].[Na+] — revertant colonies per plate (Salmonella typhimurium; TA1537; 0.13 mg per plate, with S9, preincubation): 15 ± 6
CC(C)[C@H](NC(=O)[C@@H](NC(=O)[C@H](CCCNC(=N)N)NC(=O)[C@H](CCCNC(=N)N)NC(=O)[C@H](CCCNC(=N)N)NC(=O)[C@H](CCC(N)=O)NC(=O)[C@H](CCCNC(=N)N)NC(=O)[C@H](CCCNC(=N)N)NC(=O)[C@H](CCCCN)NC(=O)[C@H](CCCCN)NC(=O)[C@H](CCCNC(=N)N)NC(=O)CN)[C@@H](C)O)C(=O)N[C@H](C(=O)N[C@@H](CO)C(=O)N1CCC[C@H]1C(=O)O)[C@@H](C)O — organ weight (ICR mice, male, lung; intranasal, 10 mg/kg daily, 4 weeks): 0.386 ± 0.036 g
CC[C@H](C)[C@H](NC(=O)[C@H](CCCCN)NC(=O)CNC(=O)[C@H](CC(C)C)NC(=O)[C@H](Cc1ccccc1)NC(=O)[C@H](CCCCN)NC(=O)[C@H](CO)NC(=O)[C@H](Cc1ccccc1)NC(=O)[C@H](Cc1c[nH]c2ccccc12)NC(=O)[C@H](CCC(N)=O)NC(=O)[C@@H](NC(=O)[C@H](Cc1ccccc1)NC(=O)CCCCCNC(=O)CN1CCN(CC(=O)O)CCN(CC(=O)O)CCN(CC(=O)O)CC1)C(C)C)C(=O)N[C@@H](CCC(=O)O)C(=O)N1CCC[C@H]1C(=O)N[C@@H](CC(=O)O)C(=O)N[C@H](C(=O)N[C@@H](CO)C(=O)N[C@@H](CCC(N)=O)C(=O)N[C@H](C(=O)N[C@@H](CCC(N)=O)C(=O)N[C@@H](CC(=O)O)C(=O)N1CCC[C@H]1C(=O)N[C@@H](CC(N)=O)C(=O)N[C@@H](CC(=O)O)C(=O)N[C@@H](CCC(N)=O)C(=O)N[C@@H](Cc1ccc(O)cc1)C(=O)N[C@@H](CCC(=O)O)C(=O)N1CCC[C@H]1C(=O)N[C@@H](Cc1ccccc1)C(=O)O)C(C)C)C(C)C [copper-64 labelled] — tissue uptake (C57BL/6 mice, male, naive, skeletal muscle; 1 h): 1.17 ± 0.3 %ID/g
N#[11C]c1ccc(-c2csc(NN=C3CCCC3)n2)cc1 — radioactivity uptake (C57BL/6 mice, male, bone; intravenous, 3 MBq, 30 min): 0.74 ± 0.13 %ID/g
CC[C@H](C)[C@H](NC(=O)[C@H](C)NC(=O)[C@H](C)NC(=O)[C@H](CCC(N)=O)NC(=O)CNC(=O)[C@H](CC(C)C)NC(=O)[C@H](Cc1c[nH]cn1)NC(=O)[C@H](CCCCN)NC(=O)[C@H](C)NC(=O)CNC(=O)[C@H](CCCCN)NC(=O)[C@H](CCCNC(=N)N)NC(=O)[C@H](CC(C)C)NC(=O)[C@H](Cc1c[nH]c2ccccc12)NC(=O)[C@H](CCCCN)NC(=O)[C@H](CCCCN)NC(=O)[C@H](Cc1c[nH]c2ccccc12)NC(=O)CN)C(=O)N[C@@H](CCCCN)C(=O)NCC(=O)N[C@@H](CC(C)C)C(=O)N[C@@H](C)C(=O)N[C@@H](CO)C(=O)O — acute toxic concentration (zebrafish embryos 28 hpf, E3 medium; 1 h): 5 µM
O=C(O)/C=C\c1ccc2occc2c1O[C@@H]1O[C@H](CO)[C@@H](O)[C@H](O)[C@H]1O — accuracy (post-procedure stability; rat plasma; 8 ng/mL, 3 h, room temperature): 100%
CC(C)(C)C(=O)OCOP(=O)(OCOC(=O)C(C)(C)C)C1CCCN(O)C1=O (stereo not shown) — log LC50 (U-251): > -4 log M
COc1cnc2cccc(N3CCc4c(cc(Cn5ccnc5)cc4-c4cn(C)nc4C(F)(F)F)C3=O)c2c1 — body weight (BALB/c nude mice, MV4-11 xenograft; intraperitoneal, 75 mg/kg, day 35): 22.7 g and 23.2 g and 22.1 g and 23 g
O=C1NC2(CC2)COc2ncc(F)cc2[C@H]2COCCN2c2ccn3ncc1c3n2 — haemoglobin (Sprague-Dawley rat, female, blood; oral, 2.5 mg/kg/day, 4 weeks, end of treatment, subacute toxicity): 132 ± 13 g/L

Repeated from above:
N#[11C]c1ccc(-c2csc(NN=C3CCCC3)n2)cc1 — radioactivity uptake (C57BL/6 mice, male, bone; intravenous, 3 MBq, 30 min): 0.74 ± 0.13 %ID/g
